# Assay results pooled from the literature.
# Protocols differ between the studies behind these lines.
# Organism: Enterococcus faecalis
Structure (SMILES),assay,system,conditions,endpoint,value
C=C/C=C(\C)CC[C@@H]1C[C@@H](O)CC(=O)O1,broth microdilution,KCTC 3511,,MIC,64 µg/mL
Cc1ccc2[nH]nc(-c3nnc(Nc4ccc(Cl)c(Cl)c4)s3)c2c1,,ATCC 2942,,MIC,82 µg/mL
CC(=O)NC[C@H]1CN(c2ccc(N3CCOCC3)c(F)c2)C(=O)O1,,"vancomycin-intermediate, 10 isolates",pH 8.5,MIC50,4 µg/mL
c1ccc(CN(CCN(Cc2ccccn2)Cc2ccccn2)Cc2ccccn2)nc1,Calgary Biofilm Device,"OG1RF, established biofilm",24 h,MBEC,> 2000 µM
Cc1ccc2[nH]nc(-c3nnc(Nc4ccc(C(F)(F)F)cc4)s3)c2c1,,ATCC 2942,,MIC,7.8 µg/mL
O=C(O)c1ccc(-n2cc(CNc3ccc(Br)c(C(F)(F)F)c3)c(-c3cccc(F)c3)n2)cc1,,ATCC 29212,"biofilm, Calgary device",MBEC,8 × MIC
CC1(C)S[C@@H]2[C@H](NC(=O)[C@H](N)c3ccccc3)C(=O)N2[C@H]1C(=O)O,agar dilution,vancomycin-intermediate,20 isolates,MIC90,> 128 µg/mL
O=C(O)c1ccc(-n2cc(CNc3cc(Br)cc(C(F)(F)F)c3)c(-c3ccc(F)c(F)c3)n2)cc1,,ATCC 29212,"24 h, preformed biofilm",biofilm MIC,1 × planktonic MIC
CN[C@H](CC(C)C)C(=O)N[C@H]1C(=O)N[C@@H](CC(N)=O)C(=O)N[C@H]2C(=O)N[C@H]3C(=O)N[C@H](C(=O)N[C@H](C(=O)O)c4cc(O)cc(O)c4-c4cc3ccc4O)[C@H](O)c3ccc(c(Cl)c3)Oc3cc2cc(c3O[C@@H]2O[C@H](CO)[C@@H](O)[C@H](O)[C@H]2O[C@H]2C[C@](C)(N)[C@H](O)[C@H](C)O2)Oc2ccc(cc2Cl)[C@H]1O,,ATCC 29212,1 strain,MBC,> 32 µg/mL
COCCNc1nc(Cl)c2c(c1O)C(=O)C1=C(O)[C@]3(O)C(=O)C(C(N)=O)=C(O)[C@@H](N(C)C)[C@@H]3C[C@@H]1C2.Cl.Cl.Cl,broth microdilution CLSI,ATCC 29212,,MIC,0.25 µg/mL
Cc1cc(O)cc(Nc2nnc(-c3n[nH]c4ccc(C)cc34)s2)c1,,ATCC 2942,,MIC,82.9 µg/mL
Cc1c2c(nn1C)CSCc1cc(n(C)n1)CSc1cc(c3ccccc3c1)OCCCc1c(C(=O)O)n(C)c3c-2c(Cl)ccc13,broth microdilution MIC,,12.5 µM,number of isolates,3
CN[C@H](CC(C)C)C(=O)N[C@H]1C(=O)N[C@@H](CC(N)=O)C(=O)N[C@H]2C(=O)N[C@H]3C(=O)N[C@H](C(=O)N[C@H](C(=O)O)c4cc(O)cc(O)c4-c4cc3ccc4O)[C@H](O)c3ccc(c(Cl)c3)Oc3cc2cc(c3O[C@@H]2O[C@H](CO)[C@@H](O)[C@H](O)[C@H]2O[C@H]2C[C@](C)(N)[C@H](O)[C@H](C)O2)Oc2ccc(cc2Cl)[C@H]1O,,intermediate susceptibility,"50% serum, 10 isolates",MIC50,4 µg/mL
O=C(O)c1ccc(-n2cc(CNc3ccc(Cl)c(C(F)(F)F)c3)c(-c3cccc(F)c3)n2)cc1,,ATCC 29212,"24 h, preformed biofilm",biofilm MIC,2 × planktonic MIC

# A few entries again:
Structure (SMILES),assay,system,conditions,endpoint,value
O=C(O)c1ccc(-n2cc(CNc3ccc(Cl)c(C(F)(F)F)c3)c(-c3cccc(F)c3)n2)cc1,,ATCC 29212,"24 h, preformed biofilm",biofilm MIC,2 × planktonic MIC
